Experimental data collected from several papers.
Numbered parts are unrelated; each lists some results of a single study.

Sample 1
Target: RNA binding protein fox-1 homolog 2, RRM domain, GST-SBP tag (RBFOX2, Homo sapiens, UniProt O43251-10, residues 100-194)
Technique: RNA Bind-n-Seq
Molecule type: RNA
Medium: in vitro
Tested at: 365 nM
Notes: natural RNA segment, single round, ends assumed
Baseline: no-protein control
Direction: higher = stronger binding
Shared flanks, not repeated: GGGAGUUCUACAGUCCGACGAUC … UGGAAUUCUCGGGUGCCAA
Residues (chain): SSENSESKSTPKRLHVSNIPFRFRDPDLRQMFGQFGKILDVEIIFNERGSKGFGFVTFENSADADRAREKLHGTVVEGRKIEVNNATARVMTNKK
| Oligonucleotide | RBNS enrichment (R) |
| --- | --- |
| UUCCUAGAGUUGCACCCUAGCAACCUAGCCAGAAAAGCAAGUGGCAAGAGGAUUAUGGCUAACAAGAAUAAAUACAUGGGAAGAGUGCUCCCCAUUGAUUGAAGAGUCAC | 0.307 |
| AGCCCAAAGCAGGUUCUAAUAAGAAUGCACCAAAGCCUUCAGCCUUAGCAAAGACAACUGCUCCUGCUCCACUAGAUAUGACUUCCUCUCCUGUGACAACAGCCAGUUUA | 0.253 |
| UAAUGCCAUCUUGAACUCCCUGUAAUAGUUGGAGACUGCACUUCCUGUCCCUAAAGGAAUGUGCGUCUAUGGCAGGUAGGCAACUCGGUCCUAUCACAUACCAAGUAGUG | 0.235 |
| UGAGCAGAGAUGUACUGCAAAGUCGCCAGUCACUGCUGCAAGGUGGCCUCUGCCUGGGGCCUCCAGAAGCUGCUCCUUUACCCUCUUGGUCCCAUGGCUGAAGCUGGAGC | 0.251 |
| AUGCAUUAGAAGGUUUUUUUGUCGAUUAGUAAAAGUGCUUUCCAUGUUACUUUAUUCAGAGCUAAUAAGUGCUUUCCUUAGUUUUCUAGUAACUAGGUGUAAAAAUCAUG | 0.393 |
| UCCUGAGAGUGUGAGGUCAUCAGAACCCACCUGCCACUGAGGCCAGUGAAGGUCUCAGACCAAGGGGUACAAGAACUCCAGCACACCCAGAGAUGGUCAUGCACAGCCUC | 0.261 |
| UAAUUCAGGAAUUUGAGUAGAGAUGGGGAACAAGAACCCAGAUGCUGUCCCCUCACCCCCUCUCCUGUAUUUCUCAGGUCCAGUUCAAAUCUAAAAUUCUACUUUUAGAG | 0.327 |
| GCAGGGACCUGGAGAGGCCAACAGCCACUGCUACCUUUGUAGUCUUCAAAAUAUUGAACUGCAGGUCCCAAGAUGCAUUUCAGGAUUUAAGACAGGUGCACUAAUGAUAA | 0.577 |
| GACAAGCCACGUCCCCUCCCACCUCUCCCCAAACCCCUGCAUCCCUGUAUUCACACGGGUCACUCUGACUCAGACAGGUACUAUUCGUAGGCAGUGUAGACAGCAGGAGG | 0.448 |
| UGGUAAUAUCUCAAAGAAAUGAACUUGUAGAUUACCAAGCAGUUUGCUAAAAAUUCAAUCUUUGACCCAAGCUGUAGCAUUUUUUUUUCAUGUGUGGCAUCUUUUUCAUG | 1.25 |
| GGCUCCUGCCUGACUCUUCCUUCGUCGGAGAAAGGAAAAAACAGUGUUAAGUGACCUAGAAACUUGAACCCUCCUUUGGAGACAACCAUUCUGCUGAAAAUUUAAAACAG | 0.566 |
| CUGAAAUCAAGCAGGAGAUUGAGAGCCACUGACUGCACCCCAGCUUUCCGUCUGCGACCUCACUCACAGGACUUGAGUAUUUCCGACCUCACGGGUCACCCCAGCCCUCU | 0.38 |

Sample 2
Target: Sal-like protein 4, full length isoform A (SALL4, Homo sapiens, UniProt Q9UJQ4, residues 1-1053)
Chain of UniProt Q9UJQ4 (whole entry, looked up): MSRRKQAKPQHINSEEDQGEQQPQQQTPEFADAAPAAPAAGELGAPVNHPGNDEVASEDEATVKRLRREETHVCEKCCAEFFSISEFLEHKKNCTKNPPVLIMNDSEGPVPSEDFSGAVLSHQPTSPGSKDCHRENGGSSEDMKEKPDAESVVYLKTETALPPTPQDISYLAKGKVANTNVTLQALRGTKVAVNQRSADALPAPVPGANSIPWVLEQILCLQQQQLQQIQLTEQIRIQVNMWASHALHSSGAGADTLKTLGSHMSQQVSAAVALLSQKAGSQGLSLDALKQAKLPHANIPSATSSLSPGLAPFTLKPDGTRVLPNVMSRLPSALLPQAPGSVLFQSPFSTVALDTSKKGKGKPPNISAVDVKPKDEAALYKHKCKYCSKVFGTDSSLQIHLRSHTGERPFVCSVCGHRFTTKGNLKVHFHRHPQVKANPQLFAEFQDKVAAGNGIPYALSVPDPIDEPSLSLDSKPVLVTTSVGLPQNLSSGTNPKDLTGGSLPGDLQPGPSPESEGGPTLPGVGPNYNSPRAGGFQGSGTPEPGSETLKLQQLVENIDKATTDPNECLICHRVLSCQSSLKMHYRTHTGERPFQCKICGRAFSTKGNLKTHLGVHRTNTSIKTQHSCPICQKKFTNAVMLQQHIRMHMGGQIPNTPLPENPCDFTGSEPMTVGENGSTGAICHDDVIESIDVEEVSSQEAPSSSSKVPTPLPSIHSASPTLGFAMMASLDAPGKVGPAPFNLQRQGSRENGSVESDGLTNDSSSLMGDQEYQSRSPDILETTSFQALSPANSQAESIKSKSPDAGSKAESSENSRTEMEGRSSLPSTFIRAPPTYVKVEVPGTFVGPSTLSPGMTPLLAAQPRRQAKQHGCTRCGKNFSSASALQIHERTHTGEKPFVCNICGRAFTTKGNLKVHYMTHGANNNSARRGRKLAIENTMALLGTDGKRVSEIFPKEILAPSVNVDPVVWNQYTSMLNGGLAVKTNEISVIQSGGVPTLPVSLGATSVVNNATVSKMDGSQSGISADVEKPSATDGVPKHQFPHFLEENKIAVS
Technique: universal PBM
Molecule type: double-stranded DNA, one strand shown
Medium: in vitro
Tested at: 600 nM
Notes: 8-mer, flanks averaged, mean of replicates
Direction: higher = stronger binding
| Oligonucleotide | E-score |
| --- | --- |
| CCCCTCCG | -0.233 |
| CACGCCAC | -0.217 |
| CTAATTGA | 0.167 |
| GCAACAGC | -0.135 |
| GATAATCC | -0.0318 |
| CAGCGAAC | -0.183 |
| GCAAAACA | 0.131 |
| GGTTTCAA | -0.00934 |
| CATGGGGG | -0.274 |
| ATCGCGAT | 0.1 |
| ACTGCTAG | -0.113 |
| ACATCTAG | 0.0922 |
| TCCCCACA | -0.169 |
| CACATCGC | -0.103 |
| CATTAACA | 0.282 |
| GGATGGAC | -0.144 |
| ATTTAGCA | 0.259 |
| AAACGAAA | 0.16 |
| CGGAGCCA | -0.369 |
| CCTGTCTC | -0.148 |

Sample 3
Target: Ras GTPase-activating protein-binding protein 1, C-terminal RGG region (G3BP1, Homo sapiens, UniProt Q13283)
Chain of UniProt Q13283 (whole entry, looked up): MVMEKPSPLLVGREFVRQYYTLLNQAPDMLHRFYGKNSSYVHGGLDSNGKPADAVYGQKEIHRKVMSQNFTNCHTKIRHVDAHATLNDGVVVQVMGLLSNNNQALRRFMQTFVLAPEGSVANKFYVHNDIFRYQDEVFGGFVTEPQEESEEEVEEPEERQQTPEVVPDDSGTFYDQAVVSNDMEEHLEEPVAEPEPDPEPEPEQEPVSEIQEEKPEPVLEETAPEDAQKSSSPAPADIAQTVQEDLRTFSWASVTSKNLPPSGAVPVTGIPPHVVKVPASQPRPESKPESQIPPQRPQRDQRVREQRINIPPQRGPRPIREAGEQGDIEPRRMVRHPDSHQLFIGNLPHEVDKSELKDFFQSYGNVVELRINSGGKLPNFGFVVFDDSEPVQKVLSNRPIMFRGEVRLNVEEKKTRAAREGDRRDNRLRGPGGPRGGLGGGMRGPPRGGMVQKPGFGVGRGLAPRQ
Technique: RNA Bind-n-Seq
Molecule type: RNA
Medium: in vitro
Tested at: 1 µM
Notes: whole 134-nt RNA, ends assumed
Together with: 150 mM KCl
Baseline: input library
Direction: higher = stronger binding
Shared flanks, not repeated: GGGAGUUCUACAGUCCGACGAUC … UGGAAUUCUCGGGUGUCAAGG
| Oligonucleotide | log2 enrichment |
| --- | --- |
| CAAGUCCUGUGCUACACAUCGUAUGUACCGAAUCGGAAAAAGGUUUGGUUUUUGGAAAGUAUUAUGUUACGCCGUUCGGAUCUGCACUUC | -1.61 |
| AAGUCCUGUGCUACACAUCGUAUGUACCGAAUCGGGUUUGGGUUUUUGGGUUUGGGAAAGUAUUAUGUUACGCCGUUCGGAUCUGCACUU | 1.15 |
| CAGAACGAUCGAUACAGAAACCACGCUGCCGCCACCACACCAUCACCAUCGACAGAACAGUCCUUAAUCCAGAAACCUGAAAUGAAGGAA | 0.164 |
| UCAAGUCCUGUGCUACACAUCGUAUGUACCGAAUCGGGAAAGGGAGGGAAAGGGAAAGUAUUAUGUUACGCCGUUCGGAUCUGCACUUCC | 1.79 |
| GUCCUGUGCUACACAUCGUAUGUACCGAAUCGGGGUUUGGGGAAAAAGGGGAAAGGGGAAAGUAUUAUGUUACGCCGUUCGGAUCUGCAC | 3.29 |
| UCCUGUGCUACACAUCGUAUGUACCGAAUCGGGGUGGGGUUUUUUUGGGGUUUUUGGGGAAAGUAUUAUGUUACGCCGUUCGGAUCUGCA | 1.21 |
| GUCCUGUGCUACACAUCGUAUGUACCGAAUCAAACCCCCCCAAACCCAAACCCCCAAAAAAGUAUUAUGUUACGCCGUUCGGAUCUGCAC | -0.809 |
| AGUCCUGUGCUACACAUCGUAUGUACCGAAUCGGGGAAAAGGGGAAAAGGGAAAAGGAAAGUAUUAUGUUACGCCGUUCGGAUCUGCACU | -0.946 |
| UGGCCCUGGUGGCAUGCGGGGAGGAAGAGGUGGCCUCAUGGAUCGUGGUGGUCCCGGUGAAAUGUUCAGAGGUGGCCGUGGUGGAGACAG | 1.61 |
| UUCCCGGAGAACUCGAGUAAAUCUAGAAGUUGCCAGGUUUCAGAACUAUUUAUUCCUUUAAUGUGCAGACGAAGGGAACGUCAUCGUUUG | -0.164 |

Sample 4
Target: PABPC1L2, full length, GST fusion (mouse, UniProt A0ABA7IW68)
Technique: RNAcompete
Molecule type: RNA
Medium: in vitro
Tested at: 20 nM
Notes: 7-mer, probes averaged, single round
Baseline: mean of 7-mers
Direction: higher = stronger binding
Residues (chain): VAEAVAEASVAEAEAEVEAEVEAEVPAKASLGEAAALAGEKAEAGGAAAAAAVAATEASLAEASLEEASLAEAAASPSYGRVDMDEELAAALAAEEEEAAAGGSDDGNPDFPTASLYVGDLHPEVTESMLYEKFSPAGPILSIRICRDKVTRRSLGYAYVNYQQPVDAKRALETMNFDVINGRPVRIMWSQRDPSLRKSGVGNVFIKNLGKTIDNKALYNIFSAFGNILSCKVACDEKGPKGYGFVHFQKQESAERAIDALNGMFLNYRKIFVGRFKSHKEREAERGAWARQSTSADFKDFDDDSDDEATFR
| Oligonucleotide | 7-mer Z-score |
| --- | --- |
| CGUAACA | -0.217 |
| GACUCUU | -0.302 |
| AACAUGG | 0.771 |
| UUCUGAA | -0.238 |
| UAUCUUG | -0.309 |
| GGCACAG | 0.256 |
| AACAGUG | 0.664 |
| AAAUGAU | 1.17 |
| CCUAUAA | 0.122 |
| UCGCCAC | -0.291 |
| CGUGAUA | -0.0736 |
| GGGCAAA | 1.58 |
| GUUGCUA | -0.128 |
| CUUAAUA | -0.0681 |
| GGACAAC | 0.358 |
| UAUGCCG | -0.258 |
| UAUCAGU | -0.26 |
| UGUAACC | -0.155 |
| UGACCCA | -0.121 |
| AGUCGUA | -0.271 |
| ACCUCCG | -0.411 |
| AUUUACG | 0.249 |
| CGGAAGA | 0.164 |
| GCUUUCA | -0.244 |
| GGAAGUC | 0.0424 |

Sample 5
Target: Histone acetyltransferase KAT6A, both winged helices, GST fusion (KAT6A, Homo sapiens, UniProt Q92794, residues 1-181)
Technique: protein binding microarray
Molecule type: double-stranded DNA, one strand shown
Medium: in vitro
Tested at: not given
Notes: 8-mer, flanks averaged, mean of 2 arrays, mostly near background
Baseline: not given
Direction: higher = stronger binding
Residues (chain): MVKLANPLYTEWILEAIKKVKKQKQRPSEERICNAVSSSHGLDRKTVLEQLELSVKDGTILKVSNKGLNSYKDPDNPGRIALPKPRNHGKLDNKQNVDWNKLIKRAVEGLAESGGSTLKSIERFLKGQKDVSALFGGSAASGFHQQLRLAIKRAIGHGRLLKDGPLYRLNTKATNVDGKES
| Oligonucleotide | E-score |
| --- | --- |
| CGGATACG | 0.241 |
| CGAGCTAC | 0.0106 |
| CCCGCAAG | 0.0919 |
| TACAACTA | -0.0564 |
| CTGTTTTA | -0.0464 |
| CAATCCAC | -0.223 |
| ACGGATAA | 0.26 |
| ATGTCTTC | -0.0164 |
| ACATTTAG | -0.175 |
| CAGCCTGA | -0.108 |
| CCACCAGC | -0.182 |
| CCTGCTCG | -0.0539 |
| ACGAATCG | 0.162 |
| CCGGTGCG | 0.263 |
| AAGCGAGC | 0.0665 |
| GCAAGCCC | -0.0113 |
| AAGTAATA | -0.04 |
| CCAATATC | -0.0985 |
| AGAGACGC | 0.208 |
| CATGTTCC | 0.103 |
| GACCACAA | -0.115 |
| GCCACCAC | -0.0799 |
